Assay results of several laboratories.
A part holds a random share of what one study measured. Changes are numbered by the printed parent chain.

Block 1
Target: Histone acetyltransferase KAT6A, both winged helices, GST fusion (KAT6A, Homo sapiens, UniProt Q92794, residues 1-181)
Method: protein binding microarray
Form: double-stranded DNA, one strand shown
Sample: in vitro
Tested at: not given
Setting: 8-mer, flanks averaged, mean of 2 arrays, mostly near background
Reference: not given
Reading: higher = stronger binding
Residues (chain): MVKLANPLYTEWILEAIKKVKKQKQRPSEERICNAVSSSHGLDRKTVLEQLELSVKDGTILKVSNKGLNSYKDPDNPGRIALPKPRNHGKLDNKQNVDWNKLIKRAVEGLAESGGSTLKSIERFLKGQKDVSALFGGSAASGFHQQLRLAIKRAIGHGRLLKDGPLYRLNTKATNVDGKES
Strand	E-score
GATTTGAC	0.0995
AGGTTGGA	-0.0224
ACATGCAT	-0.0537
GCGAGCCA	-0.0573
CTTATATA	-0.0869
CTGCTCCC	-0.0139
AGAATTAC	-0.0305
GGGGCTAC	-0.0709
ACCGCCGG	0.34
AATTTTCC	0.0331
CTGTATGC	0.00908
CATGAGCG	0.233
CGGCACAC	0.152
AGAGGTTG	-0.156
ATGGTTAA	-0.0797
CGTTAAAC	0.0708
CAACATTC	-0.0852
CACAGTGC	0.0144
GACAGTGA	-0.0599
CACTCTAC	-0.16
AAGAGCCA	-0.0601
CGCGTCCA	0.34
GAAGATGC	-0.0654
GAGTACCA	-0.0862
GCGGACGA	0.245

Block 2
Target: RNA binding protein fox-1 homolog 2, RRM domain, GST-SBP tag (RBFOX2, Homo sapiens, UniProt O43251-10, residues 100-194)
Method: RNA Bind-n-Seq
Form: RNA
Sample: in vitro
Tested at: 365 nM
Setting: natural RNA segment, single round, ends assumed
Reference: no-protein control
Reading: higher = stronger binding
Constant ends, left off below: GGGAGUUCUACAGUCCGACGAUC … UGGAAUUCUCGGGUGCCAA
Target sequence (chain): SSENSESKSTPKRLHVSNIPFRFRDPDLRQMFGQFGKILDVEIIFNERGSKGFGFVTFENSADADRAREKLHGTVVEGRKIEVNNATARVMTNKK
Strand	RBNS enrichment (R)
UGUAGCUGUGAGGCUCAGAUGGACUGGGAGGAGGGGGGAGGGUGAUACAUUAAUUAAUGGCUUCGUUAAUUAAUGUCAUGUUGCUUGUUGCUUUCUCAGUGUGUGUAUGG	0.769
UUUCAUCUUUUAUGAUAUAAAAUGAUGGCUAUCAAAUGAUUUUCCAUACAUUGUACUGAUCAAGUUAUACACCCAGGGGUAUAUACACUUUCUUCAUGUUUCUUCUUUGU	0.514
UGGACUCAGAGGAGGAAUCGUGGAAAACAAGAGCAAAACUACCCCACACCCCUAUUUCAUGUCUGAAAUAACCCUGUUUCAUACCAGUUGCAAAGCUUGUGGGGAGCGGU	0.506
CAGGGACACCAAGGCCAAUGGGUUAUCUGGACCAAAGGUGGGGUGGAGGGCCUAGGUGGUAUCUCCGGCCCAGAUGUGAAUACCUCCAUAUUCCCUGUUGGUUCCUGUUU	0.231
GUAUCUUGUUACUAACUCAGUAUGUGUCAAUGUCAAAUACCAUGAAAUAAAGUCUGAAAACCUUAAAUAGGGACUGUGUUUGUACUUGACAGCCGGGUGGCUUCUUGCUC	0.739
CAUGUUUGUGACUGUAACCAUUUGUAUGAAUUAUUUUAAAGAAAUAAAAAUCCCAGAAAGAGCCGGCCGCCUGGCACCAGUUUUAAUGGCUUCAUCAAAUGGGAGCACUG	0.409
CUCACCCCGUCUGGGGUUCAGCCCCUCCUCUGCCACCUCCCCUAUCCACCCAGCCCAUUCUCUCUCCUGUCCAACCUAACCCCUUUCCUGCGGGCUUUUCCCCGGUCCCU	0.852
GAACUUUGGUAGUGAGUAUUUUUUUUAUAUAUAUACAUAUAUAUGUACUAUCUAUAUAUAUAUCUCAAGCAUCUUUCAGGUCUUUGUGUGUGGCUUUCUUAAAGCCCUGU	0.765
CUGAUUAGAACAGUCCAACACAGUCCGACCUCACUCAAUACCCACAACCAUCGAAAAUGGAUUCUUAGUACCAGACAAUCCCAGUAAUGAAGGUUUAGUUUCCUUGAAGG	0.568
UAAUGUAAAUUUGAAGUCAUUGUUAUAAAGUAAUAAAAGUGGAAAUUACUUAAGUAUUUAAAUUAUGAAAGAAUAAUGCAGACUUUUUAUUAUUUCUUAACUGACUAGAA	0.506
AAAGGCCUGGAUAUGGUUUCUAAAAUCUCAGCUGAGAACUUCAGAAAACAGCAGCAGUAUUUUCCUUUUCCUAGUGCUAAAAUCCCUUUCCCUAGAAAUUGGCUCACCUU	0.647
UUUUGAUUAUUCCUCUAAGAUGAGCUUCUGGGAACAGUAUCACCAAAUGUCCCAAACAUUUAAGCUAGAGUUAGUUCUUGAUGUUGUAUACCUAAGCCCAUAAUCGAGCU	0.249

Block 3
Target: Phosphate system positive regulatory protein PHO4, full length, GST-tagged (PHO4, Saccharomyces cerevisiae, UniProt P07270, residues 1-312)
Method: competition protein-binding microarray
Form: double-stranded DNA, one strand shown
Sample: in vitro
Tested at: 2 µM
Setting: whole 60-bp probe, lowest competitor level
Together with: Cbf1 competitor, 0.05 µM
Reading: higher = stronger binding
Constant ends, left off below: … GTCTTGATTCGCTTGACGCTGCTG
Construct (chain): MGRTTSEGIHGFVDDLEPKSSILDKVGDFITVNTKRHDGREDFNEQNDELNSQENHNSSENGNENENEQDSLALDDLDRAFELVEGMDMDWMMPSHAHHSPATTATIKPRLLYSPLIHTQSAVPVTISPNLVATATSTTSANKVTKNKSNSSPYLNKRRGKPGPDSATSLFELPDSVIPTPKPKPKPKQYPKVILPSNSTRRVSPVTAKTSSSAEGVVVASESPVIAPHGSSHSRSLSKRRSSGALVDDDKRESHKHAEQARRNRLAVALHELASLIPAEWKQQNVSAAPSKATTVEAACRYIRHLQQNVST
Strand	fluorescence intensity
CAACAAATAGTAGCTCGCGTGGCCGAATGGCAACGC	7020 a.u.
GACCTAAGTCAGTCAAATTGTACTATCCCTGATCCT	2580 a.u.
TGAACGAAAAGTGTAGGCGTGCCAGAAATGTCAACA	7470 a.u.
GTTCTGGTGGTGGTTACCGTGCCAGGTTGTCTGGTG	5220 a.u.
CATACCCAACCTTGCATCGTGGGTGAAGATATTTGT	13500 a.u.
CCCACATATATACCGATGTTGATAAACACCATTAAA	4300 a.u.
CTTCTGTAAATTTGCGCGGTGGGTGGACGCGCCCCG	3980 a.u.
TACAGTTGGGTCCATCACATGCAAACATTTCTCCAA	7750 a.u.
AAGCTGAAAAGGCTAAACGTGCCGAGTCCAGCCAAA	9960 a.u.
CTAACGAAGGTTTGGCACGTGGGTGACAAGCCAAGT	14900 a.u.
TCAAGAAATTTAGCTCGCGTGGCCGAATGGCAACGC	6830 a.u.
TGAATTACTTCGCCCAACGTGTTGATGGCATGGGCA	11600 a.u.
GGAGTTGATGTGTCTAGTGTGACAGGTTCATTTGCC	4310 a.u.
AAGTCATAGAATCACCACGTGAAAAAAAAAAAAAAA	8850 a.u.
CAGTTGCTGACGAGTCACGTTGATGAGCAAGAATAC	12500 a.u.
AAATTACTAAGTTTTCACGTGTCATACCCCGTATGA	16600 a.u.
AAGTACTATCATGGGCGCATGCCAGGTACCTAAGCC	7500 a.u.
TGGCTTTGCTAACGACATGCGTGAAGAAAAGCGGTA	6170 a.u.
AAAAAAAAAAAAAGGTATGTGCGGGAAGAGAATCTA	4450 a.u.
GGAATTCCAGCACCACTCGTGCAAAACGTACCAAAT	8110 a.u.
GTCTTGTCTCATTGGATGGTGGGTGTCCCCACTTCA	5710 a.u.
ATAAGCTTTTAGAAACACGTGATGGAAGAACCAGAG	16600 a.u.
AAAGCGGTAATTTTGCACGTGTTTTCACATATCTAT	20500 a.u.
AAGATAATGCTTTCACACGTGCAAAATAAAATAGTA	16800 a.u.
CTAACGAAGGTTTGGTATGTGGGTGACAAGCCAAGT	4800 a.u.

Block 4
Target: Sal-like protein 4, full length isoform B (SALL4, Homo sapiens, UniProt Q9UJQ4-2, residues 1-616)
Method: universal PBM
Form: double-stranded DNA, one strand shown
Sample: in vitro
Tested at: not given
Setting: 8-mer, flanks averaged, mean of replicates
Reading: higher = stronger binding
Strand	E-score
AACATCCG	0.00046
ACGTGGGG	-0.0942
GTCGTCGA	-0.135
CATGGTTC	-0.109
GATCTCAA	-2e-05
CGTTGTTA	0.164
GGTGAGAC	-0.226
ACTACTCT	0.00174
ACAGGTTG	-0.016
CCCACGGC	-0.255
TCTCTCCA	-0.105
GGCTGAAC	-0.235
ACCCTTTC	0.115
ACAGGTAC	-0.0261
AGCATCTG	-0.0844
ATGCCAAT	0.101
AAACTAAA	0.238
GGGATCCC	-0.331
CCCTACCG	-0.155
TAAAGCAA	0.215
CCGCAAGG	-0.225
ATGCTTTA	0.138
CAGTTAAA	0.118
GACCGCAC	-0.251

Block 5
Target: CCNA2, cyclin fold, Cln2 fusion (human)
Method: yeast growth competition, sequencing
Sample: yeast
Setting: strong parent motif
Reference: not given
Reading: higher = stronger binding
Starting sequence: CDKN1B docking peptide (human); PSACRNLFGPVDH; partner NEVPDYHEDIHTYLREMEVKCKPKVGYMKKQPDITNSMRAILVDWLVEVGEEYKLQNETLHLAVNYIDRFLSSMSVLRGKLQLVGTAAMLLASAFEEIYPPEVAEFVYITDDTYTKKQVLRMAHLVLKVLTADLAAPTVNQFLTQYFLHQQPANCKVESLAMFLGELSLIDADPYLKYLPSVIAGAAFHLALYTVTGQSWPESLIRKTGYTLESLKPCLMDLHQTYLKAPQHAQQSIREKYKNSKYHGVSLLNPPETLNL
Variant	normalised enrichment score
PSACRNLFGPVNH [D12N]	4.41
PSACRNHFGPVDH [L7H]	0.297
PSACRKLFGPVDH [N6K]	4.09
PSACRNLFGPVDL [H13L]	3.67
PSACRVLFGPVDH [N6V]	3.12
PSACRNLFTPVDH [G9T]	1.56
PYACRNLFGPVDH [S2Y]	2.11
PSCCRNLFGPVDH [A3C]	4.52
PSACRNLFGPDDH [V11D]	4.55
MSACRNLFGPVDH [P1M]	3.29
PSACRNLFGPKDH [V11K]	2.58
PSACQNLFGPVDH [R5Q]	0.391
PSACRNLFGMVDH [P10M]	3.12
PSANRNLFGPVDH [C4N]	1.17
PSACRNMFGPVDH [L7M]	0.457
PSACRNLFGPVPH [D12P]	2.93
PSACRNLFGPVDR [H13R]	4.28
PDACRNLFGPVDH [S2D]	2.03
FSACRNLFGPVDH [P1F]	3.78
PSACRNLPGPVDH [F8P]	0.373
PSACRNLFEPVDH [G9E]	1.57
PSACRNLFGRVDH [P10R]	3.8
GSACRNLFGPVDH [P1G]	3.56
PSACRNLFGPCDH [V11C]	3.38

For quick reference, copied from above (block 4):
Strand	E-score
CCCACGGC	-0.255
TCTCTCCA	-0.105
GGCTGAAC	-0.235
ACCCTTTC	0.115
ACAGGTAC	-0.0261
AGCATCTG	-0.0844
ATGCCAAT	0.101
AAACTAAA	0.238
GGGATCCC	-0.331
